Results from different studies.
Every numbered part comes from another study and shows a few of its results, in no order. Positions count from the first letter of the parent shown.

Set 1
Target: Histone acetyltransferase KAT6A, winged helix 1, GST fusion (KAT6A, Homo sapiens, UniProt Q92794, residues 1-85)
Technique: protein binding microarray
Form: double-stranded DNA, one strand shown
Sample: in vitro
Concentration: not given
Notes: 8-mer, flanks averaged, mean of 2 arrays, mostly near background
Relative to: not given
Reading: higher = stronger binding
Measurement: E-score
Residues (chain): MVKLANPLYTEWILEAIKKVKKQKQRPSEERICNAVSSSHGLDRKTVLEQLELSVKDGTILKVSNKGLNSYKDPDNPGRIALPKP
GAGGGCAA: -0.117
ACCTACAT: -0.118
GAATGTGC: 0.0964
ACTTTTCG: -0.0483
AGGGTGCA: -0.282
AACCGACT: 0.068
AATACACT: -0.274
AACCACAA: -0.0191
CCAGGTCA: -0.165
ATGGTGAC: -0.163
AGAGTATC: -0.113
AGACCTAC: -0.0562
AGAGCGCC: 0.324
ACAGGTAG: -0.114
TAACGTTA: -0.0937
GTCGCTTA: 0.121
ATGTTATG: -0.143
GCCCCGGC: 0.287
CCCACGAA: -0.25
GACCTAGA: 0.112

Set 2
Target: Interferon regulatory factor 7, full length, phosphomimetic (IRF7, Homo sapiens, UniProt Q92985, residues 1-503, S471D/S472D/S475D/S476D/S477D/S483D/S484D/S487D)
Technique: protein-binding microarray
Form: double-stranded DNA, one strand shown
Sample: in vitro
Concentration: 2200 nM top
Notes: 60-bp whole probe
Together with: salmon DNA 0.4 mg/ml
Relative to: random background probes
Reading: higher = stronger binding
Measurement: fitted relative affinity
Shared flanks, not repeated: GCCTAGCAC … GTCTTGATTCGCTTGACGCTGCTG
Construct (chain): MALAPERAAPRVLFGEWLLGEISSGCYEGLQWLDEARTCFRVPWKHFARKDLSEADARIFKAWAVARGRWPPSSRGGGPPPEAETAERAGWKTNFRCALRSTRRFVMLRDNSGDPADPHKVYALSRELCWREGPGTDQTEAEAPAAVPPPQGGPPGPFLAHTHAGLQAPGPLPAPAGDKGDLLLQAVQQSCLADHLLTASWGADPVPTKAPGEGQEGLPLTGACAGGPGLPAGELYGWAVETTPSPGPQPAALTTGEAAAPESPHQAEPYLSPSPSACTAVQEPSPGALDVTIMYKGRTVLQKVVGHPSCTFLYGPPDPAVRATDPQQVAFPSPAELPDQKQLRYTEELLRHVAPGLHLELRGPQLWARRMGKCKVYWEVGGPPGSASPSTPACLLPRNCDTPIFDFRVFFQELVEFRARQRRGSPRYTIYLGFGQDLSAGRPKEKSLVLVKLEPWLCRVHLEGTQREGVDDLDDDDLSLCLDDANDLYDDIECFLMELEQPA
GACGGTTTCGGACTGGGGAAGTGCTAG: 3.81 z-score
TCCAATTACCTTTTCACTTTGTGCTAG: 3.11 z-score
GATGGTTTCGACACTGGGGACGTGCTA: 2.6 z-score
AAAGATATAAATGTAACATGGTGCTAG: -0.912 z-score
TCATATATACACTTATGACTGTGCTAG: 0.866 z-score
TCATCTCCCCCATCTTGTACTGTGCTA: 1.33 z-score
TTAGGTATCGGGACTGGGATAGTGCTA: -0.451 z-score
TCATCTCTGGTCTTTGTACTGTGCTAG: 1.61 z-score
TTAGGTTTCCTTGCCCTTTAGTGCTAG: 1.34 z-score
GACGATTTCGGTCTCGGGACGTGCTAG: 3.22 z-score
TTAGAACGGGGGTATCGATTAGTGCTA: 1.05 z-score
TTAAATCTCAGACTGGATTAGTGCTAG: -0.556 z-score
CCAACTCTGTTTTCGCTTTCTGTGCTA: 8.7 z-score
ATCTGCAGCTGACTACACACGTGCTAG: 0.766 z-score
GACGATATCAGACTGGAGTCGTGCTAG: 0.329 z-score
TCACTCCTCCAGGTTCTCACTGTGCTA: 1.84 z-score
GCAGTTGTCGTTCAAGGCTGGTGCTAG: 0.0598 z-score
GACGGTATCGTTTTCGGGACGTGCTAG: 3.48 z-score
TTAGATCTCAGTTGCGATTAGTGCTAG: 0.698 z-score
TTCAGTTTTCCTCTGTCATTGTGCTAG: 3.03 z-score
TTAGGTTTCGACTATGGGTTAGTGCTA: 2.78 z-score
TTAGGTTTCGACTATCGCTTAGTGCTA: 3.05 z-score
TTAGGTCTGCTTTTCCTTTAGTGCTAG: 2.02 z-score
TTAGATTTCGGGTCTCGATTAGTGCTA: 3.82 z-score
GACGATATCGGGTAGCGAGACGTGCTA: -0.25 z-score

Set 3
Target: ABI1, truncated, D143A, DHFR fusion (Arabidopsis thaliana)
Technique: DHFR PCA, deep sequencing
Sample: yeast
Notes: methotrexate growth selection, single substitutions
Together with: (+)-ABA 0 µM
Relative to: wild-type fitted maximum
Reading: higher = stronger binding
Measurement: relative binding score
Starting sequence: PYL1, truncated, DHFR fusion (Arabidopsis thaliana); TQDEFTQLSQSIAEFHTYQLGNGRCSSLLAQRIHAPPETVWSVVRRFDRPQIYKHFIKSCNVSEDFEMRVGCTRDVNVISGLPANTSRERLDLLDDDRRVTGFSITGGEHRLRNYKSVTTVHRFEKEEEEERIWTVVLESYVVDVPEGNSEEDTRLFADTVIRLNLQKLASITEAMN; partner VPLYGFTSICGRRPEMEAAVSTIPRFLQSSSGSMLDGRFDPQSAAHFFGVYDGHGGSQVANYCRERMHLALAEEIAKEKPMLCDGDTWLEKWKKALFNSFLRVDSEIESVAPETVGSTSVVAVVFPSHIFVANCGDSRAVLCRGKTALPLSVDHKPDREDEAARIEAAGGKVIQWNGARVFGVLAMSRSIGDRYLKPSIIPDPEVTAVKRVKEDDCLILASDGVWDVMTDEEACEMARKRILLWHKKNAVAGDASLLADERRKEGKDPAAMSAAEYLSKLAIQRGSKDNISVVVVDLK
T154R: -5.65%
Q31Y: 1.52%
F15S: 1.78%
E129H: 22.1%
L82G: 44.7%
S11F: 14%
S117M: -7.77%
E109A: -1.77%
M68Y: 2.33%
P146D: -7.82%
A13D: 24.1%
G81T: 36.5%
E38T: -1.12%
F56A: 6.54%
T135F: -7.38%

Set 4
Target: Sal-like protein 4, full length isoform A (SALL4, Homo sapiens, UniProt Q9UJQ4, residues 1-1053)
Sequence of UniProt Q9UJQ4 (whole entry, looked up): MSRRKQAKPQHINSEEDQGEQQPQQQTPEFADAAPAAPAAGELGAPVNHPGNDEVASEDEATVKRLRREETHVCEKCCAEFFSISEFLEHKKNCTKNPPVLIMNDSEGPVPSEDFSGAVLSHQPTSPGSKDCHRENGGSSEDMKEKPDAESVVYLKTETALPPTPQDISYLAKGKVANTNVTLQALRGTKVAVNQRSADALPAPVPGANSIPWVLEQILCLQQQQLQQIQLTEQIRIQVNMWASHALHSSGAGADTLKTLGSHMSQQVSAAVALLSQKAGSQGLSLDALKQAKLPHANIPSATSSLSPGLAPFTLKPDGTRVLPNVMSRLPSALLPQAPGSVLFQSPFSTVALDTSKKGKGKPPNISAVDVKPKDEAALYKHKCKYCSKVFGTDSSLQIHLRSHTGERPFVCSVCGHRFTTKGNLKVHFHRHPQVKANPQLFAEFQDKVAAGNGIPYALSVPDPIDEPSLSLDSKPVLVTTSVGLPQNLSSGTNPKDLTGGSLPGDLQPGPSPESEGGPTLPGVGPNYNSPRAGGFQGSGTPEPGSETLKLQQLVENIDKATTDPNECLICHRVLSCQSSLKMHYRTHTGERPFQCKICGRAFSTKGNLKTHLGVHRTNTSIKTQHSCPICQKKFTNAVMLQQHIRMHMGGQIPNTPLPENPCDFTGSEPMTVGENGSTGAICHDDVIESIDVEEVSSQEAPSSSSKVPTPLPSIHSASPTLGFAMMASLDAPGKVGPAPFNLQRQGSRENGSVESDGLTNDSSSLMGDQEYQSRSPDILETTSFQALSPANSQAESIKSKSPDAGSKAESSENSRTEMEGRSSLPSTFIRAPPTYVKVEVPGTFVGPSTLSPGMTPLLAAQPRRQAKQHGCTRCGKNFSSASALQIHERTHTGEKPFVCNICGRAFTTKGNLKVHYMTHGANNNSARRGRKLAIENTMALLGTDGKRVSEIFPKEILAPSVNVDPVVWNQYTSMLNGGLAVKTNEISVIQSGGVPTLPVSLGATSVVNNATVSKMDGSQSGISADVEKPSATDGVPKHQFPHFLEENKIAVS
Technique: universal PBM
Form: double-stranded DNA, one strand shown
Sample: in vitro
Concentration: 600 nM
Notes: 8-mer, flanks averaged, mean of replicates
Reading: higher = stronger binding
Measurement: E-score
AGGACTGA: 0.0214
AAGGCGGT: -0.121
CCGGTCAC: -0.29
CTTTAAAG: 0.137
AAACTGGT: -0.0353
CCGCCTGC: -0.321
AACACTTG: -0.09
AGAAATCA: 0.252
AGCCGGAC: -0.294
AGTCAACT: -0.055
ATGCGGGG: -0.204
CTGACCCC: -0.369
ACGGCCCC: -0.364
CATTACGC: -0.0449
ACATGACG: 0.0311
GAGGCTGC: -0.293
TAAGGCGA: 0.0389
CGATGACC: -0.218
ATTCGATC: 0.0931
AGCGTCGG: -0.177
GACAATAC: 0.228
ACGCCGCT: -0.327
TACAAGCA: 0.127
AAGGCGCG: -0.237
AAACCTGA: 0.0444

Set 5
Target: RNA binding protein fox-1 homolog 2, RRM domain, GST-SBP tag (RBFOX2, Homo sapiens, UniProt O43251-10, residues 100-194)
Technique: RNA Bind-n-Seq
Form: RNA
Sample: in vitro
Concentration: 365 nM
Notes: natural RNA segment, single round, ends assumed
Relative to: no-protein control
Reading: higher = stronger binding
Measurement: RBNS enrichment (R)
Target sequence (chain): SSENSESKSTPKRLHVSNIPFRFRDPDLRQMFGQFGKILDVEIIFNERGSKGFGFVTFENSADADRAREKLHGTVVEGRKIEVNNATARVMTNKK
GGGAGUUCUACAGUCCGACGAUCUGUGUGAGGGGAAUAAUGUGGAAAGCUGAGGUCUAAUUGUGGUGACGUUAGCUGUCCCAGGCCACAAGCCAUACCCAACCUUGACCUUCCUGGGUCACAAUGAUCAGUUGUGGAAUUCUCGGGUGCCAA: 0.236
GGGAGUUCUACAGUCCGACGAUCAGGCUCCUGAGCCAGUCAGGCGGAGUUCAAGUGAUAUCUUGGGACAGUGACCAUGGUCUGCAUUACUUGGGGGAGGAUGGGGUACAAGACACCAGAUCAUUUUUAUACAGUGGAAUUCUCGGGUGCCAA: 0.631
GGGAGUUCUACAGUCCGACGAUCUAGUCAAAUAAAUUACCUACUGGAAUAUAGCCCAAGCCAGUAAAGGUUUAAUAUUUGCAUUUUCGUGCUUUUAUUUUCUCCUUCCAUUCAUAAGUAUAUACUUGAAAGUAUGGAAUUCUCGGGUGCCAA: 0.394
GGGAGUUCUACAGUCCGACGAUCUGGAGUGUAUCUGCUUAAGGGGUGAAGUUUGUUUUUUCUUGUCUCUGAAAACUAAGCCCUCAAUGAACGACUUAAUUAACUCACUGCAUUAGUCUCCAUAAUUGGUCUCGUGGAAUUCUCGGGUGCCAA: 0.604
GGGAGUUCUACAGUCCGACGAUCUCAUGAAAAAAAUAAUGUAAAUCACAGACUUUUGCCAAAGCUCUUAUUUUUUUUCCUAAAUCUCUCCAGAAAAAAAAUGCAAGUGACUAAAUUCAAUUAUUGACUAAUUUUGGAAUUCUCGGGUGCCAA: 0.989
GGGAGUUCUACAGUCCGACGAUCUCUCUCUCUCUAAAUUUGGAUAUAUUUUCUUCCCAAAUUGAAUAUUUCCUUUGUUUAACUCCCCCCCCCCCCAAUAGCACCCAUUUGCCUCUCAUUCUCCCAAGGGUUGCUGGAAUUCUCGGGUGCCAA: 0.906
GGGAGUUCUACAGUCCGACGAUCUUUAUUUUUUAUUUUAAAAGAAUAUUGACUUAUUUAGCACAAGCUAUUUUUCCCUCUCUGGUGAUAAGGUUUGUACAGACUGGUUUGGUAAAUGCUAAAUUUUUGUCUUUUGGAAUUCUCGGGUGCCAA: 1
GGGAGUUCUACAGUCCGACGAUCCAGGGUUUCGGGUUUCACCAUGUUGGCCAGGUUGAUCUUGGACUCCUGACCCCAGGUGAUCCACCUGCCUCAGCCUUCCAAAGUGCUGGGAUUACAGGCAUGAGCCACCGUGGAAUUCUCGGGUGCCAA: 0.291
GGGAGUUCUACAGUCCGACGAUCACAUAAUAAUAUGUUGCAUGCAGUUAUAUUUUCUAUUUAGUCUGUAUAUUUUGUUCUUCAUAGUCUGUUUUUUCUAGCAUGCUUGAUUUAGGAGAGAAUAAAGGGCUAUAUGGAAUUCUCGGGUGCCAA: 15.2
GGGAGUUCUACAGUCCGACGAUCAUCAUUUAAAUAUAAUUCAGCAUAUGGGAAGUAACAUUGCACUAAUAUGGAAAUCACUGCCAGAGACAGUCUAUUUUCUUUUAAUUUGUUACUACUUAGUCACAAACCCCUGGAAUUCUCGGGUGCCAA: 0.765
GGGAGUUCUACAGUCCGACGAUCUUGACGUUUUAUUAAUAUUUUUUAAAUUGUUACGUUUAUAAAUUUGGUACUUAAGGCACAGCCAGUAUGAGACACUGAAUGCGACAUUUAUUAUAAAGAGCUGCUGCACUUGGAAUUCUCGGGUGCCAA: 0.894
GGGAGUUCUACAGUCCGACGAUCCGGCAGCCCUGGCGGAGGGAUGCAGGUGGGCCGGAAGAUCCCACGAUUCCGAUCGACUGCCAAGCAGCAGCCGCUGCCAGGGGCUGCGUCUGACAUCCUGACCUCCUGGAUGGAAUUCUCGGGUGCCAA: 0.255

Some of these lines once more (set 2):
GACGGTTTCGGACTGGGGAAGTGCTAG: 3.81 z-score
TCCAATTACCTTTTCACTTTGTGCTAG: 3.11 z-score
GATGGTTTCGACACTGGGGACGTGCTA: 2.6 z-score
AAAGATATAAATGTAACATGGTGCTAG: -0.912 z-score
TCATATATACACTTATGACTGTGCTAG: 0.866 z-score
TCATCTCCCCCATCTTGTACTGTGCTA: 1.33 z-score
TTAGGTATCGGGACTGGGATAGTGCTA: -0.451 z-score
TCATCTCTGGTCTTTGTACTGTGCTAG: 1.61 z-score
TTAGGTTTCCTTGCCCTTTAGTGCTAG: 1.34 z-score
GACGATTTCGGTCTCGGGACGTGCTAG: 3.22 z-score
TTAGAACGGGGGTATCGATTAGTGCTA: 1.05 z-score
TTAAATCTCAGACTGGATTAGTGCTAG: -0.556 z-score
CCAACTCTGTTTTCGCTTTCTGTGCTA: 8.7 z-score
ATCTGCAGCTGACTACACACGTGCTAG: 0.766 z-score
